Results gathered from unrelated publications.
Lines come from different studies, so protocols differ.
Cell line: HepG2

SMILES | test | conditions | how to read | inhibition
C/C(=N\N=c1/[nH]c(-c2ccccc2)cs1)c1ccccn1 | cell growth or viability, SRB | 100 µg/mL, 48 h | – | 67.7%
O=C(COc1ccc(/C=N/Nc2nc(-c3ccc(Br)cc3)cs2)cc1)N1CCN(C(=O)COc2ccc(/C=N/Nc3nc(-c4ccc(Br)cc4)cs3)cc2)CC1 | cell growth or viability, SRB | 100 µM, 48 h | – | 62.3%
CC(C)(C)c1cc2c(O)c(c1)Cc1cc(C(C)(C)C)cc(c1OCC(=O)Nc1cncc3ccccc13)Cc1cc(C(C)(C)C)cc(c1O)Cc1cc(C(C)(C)C)cc(c1OCC(=O)Nc1cncc3ccccc13)COC2 | cell growth or viability, MTT | 15 µM, 72 h | – | 91%
C/C(=N\N=C1/NC(=O)CS1)c1ccccn1 | cell growth or viability, SRB | 100 µg/mL, 48 h | – | 60.2%
CC1(C)[C@@H](O)CC[C@]2(C)[C@H]3C(=O)C=C4[C@@H]5C[C@@](C)(C(=O)O)CC[C@]5(C)CC[C@@]4(C)[C@]3(C)CC[C@@H]12 | cell growth or viability, MTT | 20 µg/mL | – | 10.7%
CC(C)(C)c1cc2c(O)c(c1)Cc1cc(C(C)(C)C)cc(c1OCC(=O)NCc1cccnc1)Cc1cc(C(C)(C)C)cc(c1O)Cc1cc(C(C)(C)C)cc(c1OCC(=O)NCc1cccnc1)COC2 | cell growth or viability, MTT | 15 µM, 72 h | – | 94%
O=C(COc1ccccc1/C=N/Nc1nc(-c2ccc(Br)cc2)cs1)N1CCN(C(=O)COc2ccccc2/C=N/Nc2nc(-c3ccc(Br)cc3)cs2)CC1 | cell growth or viability, SRB | 100 µM, 48 h | – | 74.8%
C[C@]1(COC(=O)c2ccc(O)c(O)c2)[C@H](C(=O)O)N2C(=O)/C(=C/c3ccccn3)[C@H]2S1(=O)=O | cell growth or viability | 32.2 µM | – | 7%
CC1(C)C2CC[C@]3(C)[C@H](C(=O)C=C4[C@@H]5C[C@@](C)(C(=O)N6CCN(C(=O)Cc7ccc(Cl)cc7)CC6)CC[C@]5(C)CC[C@]43C)[C@@]2(C)CC[C@@H]1OC(=O)Cc1ccc(Cl)cc1 (some centres unmarked) | cell growth or viability, MTT | 2 µg/mL | – | 0%
CC(C)(C)c1cc2c(O)c(c1)Cc1cc(C(C)(C)C)cc(c1OCC(=O)Nc1nccs1)Cc1cc(C(C)(C)C)cc(c1O)Cc1cc(C(C)(C)C)cc(c1OCC(=O)Nc1nccs1)COC2 | cell growth or viability, MTT | 15 µM, 72 h | – | 16%
CC(=O)O[C@@H]1CC[C@@]2(C)C(CC[C@]3(C)C2C(=O)C=C2C4[C@@H](C)[C@H](C)CC[C@]4(C)CC[C@]23C)[C@@]1(C)C(=O)OCC(=O)Oc1cc(C)ccc1C(C)C (some centres unmarked) | IL-1β production, ELISA, item: IL-1β | 1 µM, together with: acetaminophen 10 mM | relative to: acetaminophen-treated cells | ~39%
CC(C)(C)c1cc2c(O)c(c1)Cc1cc(C(C)(C)C)cc(c1OCC(=O)NCc1ccccn1)Cc1cc(C(C)(C)C)cc(c1O)Cc1cc(C(C)(C)C)cc(c1OCC(=O)NCc1ccccn1)COC2 | cell growth or viability, MTT | 15 µM, 72 h | – | 94%
CC(=O)O[C@@H]1CC[C@@]2(C)C(CC[C@]3(C)C2C(=O)C=C2C4[C@@H](C)[C@H](C)CC[C@]4(C)CC[C@]23C)[C@@]1(C)C(=O)N/N=C1/C(=O)Nc2ccccc21 (some centres unmarked) | IL-1β production, ELISA, item: IL-1β | 10 µM, together with: acetaminophen 10 mM | relative to: acetaminophen-treated cells | ~47%
CCOC(=O)C/C(C)=N/NC(=O)c1nc2ccccc2n(C)c1=O | cell growth or viability, MTT | 10 µM | – | 94.6%
